Experimental data pooled from the literature.
Parts stem from different laboratories: compare values within a part only. Changes are numbered by the printed parent chain.

Sample 1
Target: RNA binding protein fox-1 homolog 2, RRM domain, GST-SBP tag (RBFOX2, Homo sapiens, UniProt O43251-10, residues 100-194)
Method: RNA Bind-n-Seq
Form: RNA
Matrix: in vitro
Tested at: 365 nM
Setting: natural RNA segment, single round, ends assumed
Baseline: no-protein control
Direction: higher = stronger binding
Shared flanks, not repeated: GGGAGUUCUACAGUCCGACGAUC … UGGAAUUCUCGGGUGCCAA
Target sequence (chain): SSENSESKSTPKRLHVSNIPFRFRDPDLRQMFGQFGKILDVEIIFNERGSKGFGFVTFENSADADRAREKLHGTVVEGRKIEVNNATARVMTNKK
| Sequence | RBNS enrichment (R) |
| --- | --- |
| AGUCACAGAGGAUGAAAUACCACAUCAAGGCAGUGGGAACUUCCUGCGACUUCUCCUGGUCCUCCCCAGAAGUAUCUGGUGUCAGCUGAAGACCAUGUGUCCCCCAAUAC | 0.359 |
| AUCAUUGGGUCCCCUGAGCUCCAUGAAGGACCCUCUGUUGUCCCCUUGAUGAUUUAUCAGGCAUGAGAGUAGCAGACAGGAUUGCCUUGAGAAACACACAGACAACAACG | 0.297 |
| UGUCAGCGGGCGCCACAGCGGAUCAGCGGUUCCGUGUUCACUUUUGUUGUACAAUAUAUGACACAGUGCACAUUGAAUACCAACAAGGUUGCAACGUUUACAUUAUAGCC | 0.201 |
| UUUUCCCCCACCGCAACCUCCAUCUCCCGGGUUCAAGCAAUUCUCCUGCCUCACCCUCCCAAGUAGCUGGGAUUACAGGUGCCCACCUCCACGCCCAGCUAAUUUUUGUA | 0.654 |
| UUUUUGGAAGGACUACAGAAAGUACCUGAUUUGCACUUGAACCAGAUUAUAGAUUUAAAAGUAUAUGACAUGUAUUUUGUAUUUAAAACUAGAAUAGCCAGUAUUUAUGU | 0.842 |
| CAUGCCCAUUAGCAGAGGCUGCUGCUGAUGUGGCAGCUGCUCCCUACCACCCGCCCUGGCUCCCCAGCUGCAGGUUGCACACCCUCAGCCUGAGAAUGUAAAAUAGGGCA | 3.21 |
| UGUUAUGGUUGGAGGUCACCACAACAUGAGCAACUGCAUUAAAGGAUCGCAGCAUCACGAAGGUGGAGAAGCCCUGCUCUAUGGGAAAUGUCCCUGGUAUCUCUGUGGUC | 0.574 |
| UAUCCUAUGGUGAUGCUGUUUCUCGUUGCUAAUGGCAUUAGUGCCCCUGUAUCCUAGUGAUAACUCCAGGUCUGUGAACCAUUCAAACAGCAUUCAUUUUGAGAAAAGCA | 9.32 |
| CUAACUUUCCUUGGGGUGGGAGCACAGCUGGACUGUGUAGCCCGGGCUUGACCCUGAGCCAUAGGGAAACUGAACUGUGGGGGCCUGUGGUUGACAGGCCUGUGAAAUCC | 0.639 |
| CCUGCUGGCAGCCUGCAUAGGCCUAGGGCCUCCAUUCUGCCGUAUAUUGAAGAUUUAAAGACAGUGGCACACACACUUGAACAAAAGCAAGCCCUCAGUGUUUCCAGCCA | 0.254 |
| GACUCUACCACUUCCGUGAGCUACUAGUUAGGCAUGGGCAGGAUUAAGUUUUAUGUGUAUUAUCUUCCCACUACCAAGAAUGGUUAUGUUUCACAGAAUACCAGUUCAGU | 1.17 |
| GCUCUGAGCCUCCCUUCCCCAUUCCCCAUCCAGCUCCUUUCCCCCUGGGUUUCCUUGGCUUCCUGCAGCAAAUUGGGCAGUUCUCUGCCCCUUGCCUAAAAGCCUGUACC | 0.596 |

Sample 2
Target: RING finger protein unkempt homolog, zinc fingers 1-6, GST-SBP tag (UNK, Homo sapiens, UniProt Q9C0B0, residues 30-357)
Method: RNA Bind-n-Seq
Form: RNA
Matrix: in vitro
Tested at: not given
Setting: RNA with constant flanks, human-mouse chimeric sites, ends assumed
Baseline: input RNA pool
Direction: higher = stronger binding
Shared flanks, not repeated: GGGAGUUCUACAGUCCGACGAUC … CAACAGAGGAUUGAGCAUCA
Residues (chain): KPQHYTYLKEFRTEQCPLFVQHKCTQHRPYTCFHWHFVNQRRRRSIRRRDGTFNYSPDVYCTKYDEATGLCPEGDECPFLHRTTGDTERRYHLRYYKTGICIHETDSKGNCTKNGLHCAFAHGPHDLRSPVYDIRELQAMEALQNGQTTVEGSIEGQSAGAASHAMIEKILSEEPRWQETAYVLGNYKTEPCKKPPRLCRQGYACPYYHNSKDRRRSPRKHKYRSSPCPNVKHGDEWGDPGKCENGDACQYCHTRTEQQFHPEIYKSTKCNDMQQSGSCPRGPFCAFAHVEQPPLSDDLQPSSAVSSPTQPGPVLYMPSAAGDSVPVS
| Sequence | bound/input enrichment [ratio] |
| --- | --- |
| AUCAAAUACUUUGGGGAUAUUAUUAGCGUGGGACAGAGACUGUUGCAAGGAGCUCGGAUCUUAGGGAUUCCAGUUAUUGUAACAGAACAAUACCCCAAAGGACUUGGCAGCACCGUUCAA | 0.263 |
| CCCCAAUUACCAUCUGUAGAGUUGGAAUGCACUCUCUUUUUUAAAAAACAUGUAUACAUUUUAGGGCUGUAGAUUUAUUUUCCUGGUUUUGUUUUUCAUUGCUGACUUUUGAGCACAGAA | 2.04 |
| UGUAGUUUCUUGAUUUAUCAUUUUUCUCUUUUCUUUCAGAUCGUCAGGAAAAGCCUAAAGAUUAGGUUGUAAGAAAAACAGAAGCCAUGUUUCGAAGACCUGUGUUAAUUACAGGUAGUC | 0.306 |
| ACUCAGAGAUCCACCUCAAUUGAAGUGGGGAGUAAAGGUGUGGCCACCACACCUAACUUGAUGGAUAUAUAUUUUUUUUAAUAUGAAUCUUCCUGUUCGUCCAGGGAGCAAGAACGGGUU | 0.494 |
| GGGGAGAAACCUUACGAAUGCGUUCAGUGUGGGAAAUCCUACAGUCAGAGCUCAAACCUCUUCAGACAUCAGAGACGACACAAUGCAGAAAAACUUUUGAAUGUUGUGAAAGUUUAAGAA | 0.2 |
| CUGUGUGUGCUGAAUAAUGAUUUGUGAAAGAAGUUUUUCCAAGCUGUAACCCAUGCUGUUAUUAUAGUUGCUGCAAAAUGUUCUUCCUAUUGAUGUUUUUAUUUGUUAACUGAAGGUCUC | 0.239 |
| CAGCGCCGAGGCCGCGGGUGCCCGCCGGGUGUGCUGAGCAGCAGCCAUGGGCAUCAAAUUUUUAGAAGUUAUCAAACCAUUCUGUGCAGUUCUACCAGAAAUUCAGAAACCGGAAAGGAA | 0.903 |
| CGCCUGGAUGAGGCGGGUGUCACAGAUGAAGUGCUGGAUUCUGCCAUGCAAGCCUUCCUUCUGGAGGUCAUUGUUAAACAUGGGGAGCCGGCACCUUAUUUAUGUAACAAAGAUCCGUUU | 0.0743 |
| UUUCUACUGCAGCAAACGAUGCUAAGAAUUAAGGAUCCUAAGAAGUCCCUGGAUUUUUAUACUAGAGUUCUUGGACUGACCCUCCUGCAGAAGCUUGACUUCCCUGCUAUGAAGUUCUCG | 0.827 |
| ACCUCCCCCUCCCGCCUCACCCCACCCCCGCUUUUUGGAAAGUUUUUGGCUUUUUUUUUCCUUCCCCAUACAAAGUGAUUACAGUUUAGAGUCUAUGGGUCUAUCGAAGGGCUUGACGGA | 1.17 |
| CAGGGCAUCAUCUCUCGUGCUGUUAGACACCUGUUCAAGAGUAUUGAUGAGAAAAAGACCUCAGCGAUUAAAAAUGGGCUGCCCCCUCCUGAAUUCAAAGUGAAUGCCCAAUUCUUAGAG | 0.486 |

Sample 3
Target: Sal-like protein 4, full length isoform B (SALL4, Homo sapiens, UniProt Q9UJQ4-2, residues 1-616)
Method: universal PBM
Form: double-stranded DNA, one strand shown
Matrix: in vitro
Tested at: not given
Setting: 8-mer, flanks averaged, mean of replicates
Direction: higher = stronger binding
Target sequence (chain): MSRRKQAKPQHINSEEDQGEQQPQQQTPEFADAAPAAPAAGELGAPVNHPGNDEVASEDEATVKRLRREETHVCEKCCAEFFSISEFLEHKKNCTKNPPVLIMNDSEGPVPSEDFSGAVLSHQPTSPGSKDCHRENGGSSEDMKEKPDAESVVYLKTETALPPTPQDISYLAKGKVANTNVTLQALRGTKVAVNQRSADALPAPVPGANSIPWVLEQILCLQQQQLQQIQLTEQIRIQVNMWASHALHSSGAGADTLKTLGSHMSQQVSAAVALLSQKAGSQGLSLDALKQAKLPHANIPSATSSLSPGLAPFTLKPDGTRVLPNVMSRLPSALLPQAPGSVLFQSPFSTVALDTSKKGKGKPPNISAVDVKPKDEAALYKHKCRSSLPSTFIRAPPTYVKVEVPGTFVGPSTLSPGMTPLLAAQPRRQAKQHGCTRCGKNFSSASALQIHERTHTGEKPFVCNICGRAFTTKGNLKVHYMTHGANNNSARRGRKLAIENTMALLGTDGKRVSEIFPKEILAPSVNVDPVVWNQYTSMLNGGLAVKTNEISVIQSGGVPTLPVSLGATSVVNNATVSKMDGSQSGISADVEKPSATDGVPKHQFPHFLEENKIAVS
| Sequence | E-score |
| --- | --- |
| CACAAGCC | -0.194 |
| ACACTTTG | 0.171 |
| AATTCCGG | -0.0326 |
| CACACAAC | 0.105 |
| CATGCCAG | -0.248 |
| AGCGCGAT | -0.143 |
| GCGGTCAC | -0.288 |
| AATTTGGC | 0.0588 |
| AGAGCGGA | -0.0442 |
| ACTTTTGC | 0.095 |
| GACAGAGC | -0.232 |
| CACAATCA | 0.0856 |
| ATACGACG | 0.157 |
| CCGAAAAA | 0.162 |
| ATACAAAT | 0.332 |
| CGCAAAAC | 0.0354 |
| ATGATTCG | 0.0363 |
| AACTTGTC | 0.0942 |
| GAAGGAAC | -0.117 |
| GAAGTTCA | 0.112 |
| CCCCACAA | -0.106 |
| ATGCCCGA | -0.133 |
| GCAGGTGA | -0.289 |

Sample 4
Target: CCNE1, cyclin fold, Cln2 fusion (human)
Method: yeast growth competition, sequencing
Matrix: yeast
Setting: weak parent motif
Baseline: not given
Direction: higher = stronger binding
Starting sequence: SAMHD1 docking peptide (human); ASKSRVQLFKDDP
| Variant | normalised enrichment score |
| --- | --- |
| S2C | 0.103 |
| L8G | 0.16 |
| K10C | 0.257 |
| V6H | -0.341 |
| K10D | 0.0617 |
| D11R | 0.402 |
| S4Y | 0.446 |
| S2E | 0.319 |
| R5H | -0.152 |
| D12P | 0.148 |
| R5C | 0.308 |
| L8V | -0.0247 |
| D11I | -0.093 |
| F9P | -0.0461 |
| K3E | 0.0974 |
| V6M | 0.241 |
| D12H | 0.328 |

Sample 5
Target: Ras GTPase-activating protein-binding protein 1, full length (G3BP1, Homo sapiens, UniProt Q13283)
Chain of UniProt Q13283 (whole entry, looked up): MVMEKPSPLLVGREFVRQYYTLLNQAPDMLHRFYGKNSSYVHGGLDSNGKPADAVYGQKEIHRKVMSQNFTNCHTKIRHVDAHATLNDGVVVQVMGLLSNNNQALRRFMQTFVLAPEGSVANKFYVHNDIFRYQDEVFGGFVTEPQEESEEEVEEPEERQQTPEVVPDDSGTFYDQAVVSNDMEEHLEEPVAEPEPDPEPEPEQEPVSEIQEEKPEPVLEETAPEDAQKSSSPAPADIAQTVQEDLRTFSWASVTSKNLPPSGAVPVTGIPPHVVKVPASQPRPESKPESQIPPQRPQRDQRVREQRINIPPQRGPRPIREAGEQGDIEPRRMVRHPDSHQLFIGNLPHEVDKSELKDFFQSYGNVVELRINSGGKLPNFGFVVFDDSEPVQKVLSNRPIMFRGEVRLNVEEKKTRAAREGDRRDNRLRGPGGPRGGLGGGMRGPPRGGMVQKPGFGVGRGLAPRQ
Method: RNA Bind-n-Seq
Form: RNA
Matrix: in vitro
Tested at: 200 nM
Setting: whole 134-nt RNA, ends assumed
Added: 150 mM KCl
Baseline: input library
Direction: higher = stronger binding
Shared flanks, not repeated: GGGAGUUCUACAGUCCGACGAUC … UGGAAUUCUCGGGUGUCAAGG
| Sequence | log2 enrichment |
| --- | --- |
| UGUGCUACACAUCGUAUGUACCGAAUCGGGGAAAAAGGGGAAAAAAAGGGGUUUUUUUGGGGAAAGUAUUAUGUUACGCCGUUCGGAUCU | -0.0254 |
| GUCCUGUGCUACACAUCGUAUGUACCGAAUCAAACCCCCCCAAACCCAAACCCCCAAAAAAGUAUUAUGUUACGCCGUUCGGAUCUGCAC | 0.048 |
| UGGGAGGUGGAUUUUGUUUAUUUUUUUAGCUCAUUUCCAGGGGUGGGAAUUUUUUUUUAAUAUAUGUCAUGAAUAAAGUUGUUUUUGAAA | 0.158 |
| UCAAGUCCUGUGCUACACAUCGUAUGUACCGAAUCGGAAAAAGGAGGUUUUUGGAAAGUAUUAUGUUACGCCGUUCGGAUCUGCACUUCC | -0.764 |
| AGUCCUGUGCUACACAUCGUAUGUACCGAAUCGGGGUUUUGGGGUUUUGGGUUUUGGGAAAGUAUUAUGUUACGCCGUUCGGAUCUGCAC | -0.0324 |
| UCAAGUCCUGUGCUACACAUCGUAUGUACCGAAUCGGGCCGGGGCCGGGGCCGGGAAAGUAUUAUGUUACGCCGUUCGGAUCUGCACUUC | -0.796 |
| AAGUCCUGUGCUACACAUCGUAUGUACCGAAUCGGGAAAGGGAAAAAAAGGGUGGGAAAGUAUUAUGUUACGCCGUUCGGAUCUGCACUU | 0.23 |
| UGGGAGGUGGAUUUUGUUUAUUUUUUUAGCUCAUUUCCAGGGGUGGGAAUUUUUUUUUAAUAUGUUUCAUGAAUAAAGUUGUUUUUGAAA | -0.0876 |
| AGUCCUGUGCUACACAUCGUAUGUACCGAAUCGGGGUGGGGUUUUUUUGGGGUGGGGAAAGUAUUAUGUUACGCCGUUCGGAUCUGCACU | 0.639 |
| UUCCCGGAGAACUCGAGUAAAUCUAGAAGUUGCCAGGUUUCAGAACUAUUUAUUCCUUUAAUGUGCAGACGAAGGGAACGUCAUCGUUUG | 0.117 |
| AAUGCCCACAAGGUCCCUCCCCCAUGGCUGAUUGCCAUGCAGCGAUAUGGACCACCCCCAUCGUAUCCCAACCUGAAAAUCCCUGGGCUG | 0.782 |
| CCUCAAGUCCUGUGCUACACAUCGUAUGUACCGAAUCGGAGGAGGAAAAAGGAAAGUAUUAUGUUACGCCGUUCGGAUCUGCACUUCCAG | 0.00554 |
| CACAGACAACACGCACCCACACAGACACAGAGGGAAGGGGUUGGGAUGGGGACAGGAUGCACAGCAGGGCGGGGUAGGACCCCAGCCCCU | 1.78 |
| CAAGUCCUGUGCUACACAUCGUAUGUACCGAAUCGGUUUUUUUGGAAAAAGGAGGAAAGUAUUAUGUUACGCCGUUCGGAUCUGCACUUC | -0.871 |
